Measured values gathered from unrelated publications.
Compare with care: the assays were run in different laboratories. Values joined by “and” are separate records of one study, mostly repeats; a detail may differ. Numbers after ± are the reported error.
Ugcg: Ceramide glucosyltransferase (Ugcg, Mus musculus, UniProt O88693)
USP5: Ubiquitin carboxyl-terminal hydrolase 5 (USP5, Homo sapiens, UniProt P45974)
CASP9: Caspase-9 (CASP9, Homo sapiens, UniProt P55211)

Under “isoTOP-ABPP competition ratio”, CCCCCC=CC=C1C(=O)C=CC1CC=CCCCC(=O)O (stereo not drawn) is recorded as 1.2 (Adenosine kinase (ADK, Homo sapiens, UniProt P55263); competitive isoTOP-ABPP; proteome, soluble, MDA-MB-231; 100 µM, added: iodoacetamide probe; baseline: DMSO over compound-treated, higher = stronger cysteine blockade).
With OC[C@H]1[C@@H](O)[C@H](O)[C@@H](O)CN1CCCC/C=C\C12CC3CC(CC(C3)C1)C2 the IC50 was 14.3 µM (Ugcg; enzyme activity, inhibitor, fluorescence).
For CC1CCCc2nc(N)nc(N)c21 (stereo not drawn), “major state population” read 96.6 ± 0.3% (folA (Escherichia coli, UniProt P0ABQ4); concentration not given, ternary complex with NADPH).
The inhibition of COc1ccc(NC(=S)Nc2ccc(N3CCOCC3)c3nonc23)cc1OC is reported as 96% (USP5; enzyme activity, inhibitor; 17 µM).
CCCCCC(O)/C=C/C=O (stereo not drawn): “isoTOP-ABPP competition ratio” 1.5 (Pseudouridylate synthase RPUSD2 (RPUSD2, Homo sapiens, UniProt Q8IZ73); competitive isoTOP-ABPP; Ramos soluble proteome; 100 µM, 60 min, added: iodoacetamide probe; baseline: DMSO over compound-treated, higher = stronger cysteine blockade).
With O=S1(=O)C=C(N/C=N/c2ccccc2F)c2ccccc21 the inhibition was 3% (USP5; enzyme activity, inhibitor; 17 µM).
CC(=O)N[C@@H](C(=O)N[C@@H](CCCC(=O)O)C(=O)N[C@@H](CCC1CCCCC1)C(=O)N[C@@H](CC(=O)O)C(=O)COC(=O)c1c(C)cccc1C)C1CCCCC1 gave a kinact/KI of 82500 M⁻¹ s⁻¹ (CASP9; enzyme activity, inhibitor).
For O=C(NCCO)c1ccc(C2CCCCC2)cc1, the hepatic clearance was 3.9 mL/min/kg (liver microsome stability; human liver microsomes; 1 µM, without NADPH).
The kinact/KI of CC(=O)N[C@H](C(=O)N[C@@H](CCC(=O)O)C(=O)N[C@@H](CCCCN(C)C)C(=O)N[C@@H](CC(=O)O)C(=O)COC(=O)c1c(C)cccc1C)C(C)C is reported as 8700 M⁻¹ s⁻¹ (CASP9; enzyme activity, inhibitor).
For O=C1c2sc(-c3ccc(N4CCC(CO)CC4)nc3F)nc2CCN1c1cccnc1, the specific binding was 0.86 nM and 1.12 nM (TAR DNA-binding protein 43, aggregated (TARDBP, Homo sapiens, UniProt Q13148); radioligand binding; human, FTLD-TDP type B sarkosyl-insoluble extract; 18.97 nM).
CC(C)C[C@H](NC(=O)[C@@H](NC(=O)[C@H](Cc1ccccc1)NC(=O)c1ccc(C(C)(C)C)cc1)C(C)(C)C)C(=O)N[C@@H](CCCCN(C)C1CC2CCC1C2)C(=O)N[C@@H](CO)C(N)=O (stereo partly drawn) has a selectivity ratio of over 1.3 (Chromobox protein homolog 8 (Homo sapiens, UniProt Q9HC52); TR-FRET displacement; baseline: IC50 CBX7 over IC50 CBX8).
CCN(CC)C(CO)c1cccc2c(C)c(C)oc12 (stereo not drawn) gave a fold change of 0.757 and 0.819 and 0.833 and 0.946 and 0.781 (LPAR1 (Homo sapiens, UniProt Q92633, W271A); G-protein dissociation, agonist, NanoBiT; HEK-293T; 1 µM, W271A mutant; baseline: baseline luminescence).
With O=C(NCCOc1ccc(F)cc1)c1ccc([C@H]2[C@@H](F)[C@@H](F)C[C@@H](F)[C@H]2F)cc1 the hepatic clearance was 17 mL/min/kg (liver microsome stability; dog liver microsomes; 1 µM).
The fraction bound of COC(=O)[C@@]1(Cc2ccccc2)C=C(C(=O)OC(C)(C)C)C(=O)CC1 is reported as 0.757 (MAPK14 (Homo sapiens, UniProt Q16539, C162A); peptide binding, fluorescence polarization; 7.812 µM).
For [3H]C([3H])([3H])OC1(C2=NCCN2)COc2ccccc2O1 (stereo not drawn), the Bmax was 17.1 ± 0.4 pmol/mg protein (Alpha-2C adrenergic receptor (Mus musculus, UniProt Q01337); [3H]compound saturation binding; HEK293 membranes).
With CN(C)c1ccc2c(c1)C(=O)N(c1ccc(S(N)(=O)=O)cc1)C2=O the emission maximum was 517 nm (CA2 (Homo sapiens, UniProt P00918); binding).
The IC50 of OC[C@@H]1[C@@H](O)[C@H](O)[C@@H](O)CN1CCCCCOCc1ccc(-c2ccc3c(c2)OCCO3)cc1 is reported as 0.04 µM (Ugcg; enzyme activity, inhibitor, fluorescence).
The maximal inhibition of Fc1ccc(Nc2nc(NC3CCCCC3)c3cc(C(F)(F)F)ccc3n2)cc1F is reported as 1.9% (ADRB2 (Homo sapiens, UniProt P07550, N148A); β-arrestin2 recruitment, antagonist, BRET; mutant N148A; baseline: isoprenaline maximal response).
The kinact/KI of CC(=O)N[C@H](C(=O)N[C@@H](CCCC(=O)O)C(=O)N[C@@H](CCC1CCCCC1)C(=O)N[C@@H](CC(=O)O)C(=O)COC(=O)c1c(C)cccc1C)C(C)(C)C is reported as 86200 M⁻¹ s⁻¹ (CASP9; enzyme activity, inhibitor).
The iBAQ abundance of N#CN1CC[C@H](C(=O)Nc2nc3c(s2)CN(C(=O)Cn2cc(CNC(=O)CCCC[C@@H]4SC[C@@H]5NC(=O)N[C@@H]54)nn2)CC3)C1 is reported as 1.12e+06 (USP5; probe binding, affinity probe, neutravidin pull-down LC-MS/MS; HEK293T, cell lysate; 5 µM, 1 h, mean of three replicates, unit not given; higher = more pulled down).
Under “probe labeling increase”, Nc1nc(SCc2ccc(Cl)cc2)nn1S(=O)(=O)c1ccc2ccccc2c1 is recorded as 1.6 fold (Lysophospholipase-like protein 1 (Mus musculus, UniProt Q3UFF7); enzyme activity, activator, gel-based ABPP; purified protein; concentration not given, added: FP-rhodamine; baseline: DMSO).
Under “melting temperature shift”, C=CC(=O)N1CCCC(n2c(=O)c3ncccc3n(Cc3ccc(Oc4ccccc4)cc3)c2=O)C1 (stereo not drawn) is recorded as -6.23 (MYG1 exonuclease (MYG1, Homo sapiens, UniProt Q9HB07); thermal proteome profiling, item: C12orf10; 10 µM, destabilized proteins, unit not given; baseline: vehicle).
CC(=O)N[C@@H](CC(=O)O)C(=O)N[C@@H](CO)C(=O)N[C@@H](C)C(=O)N[C@@H](CC(=O)O)C(=O)COC(=O)c1c(C)cccc1C gave a kinact/KI of 4300 M⁻¹ s⁻¹ (CASP9; enzyme activity, inhibitor).
CC(C)[C@H]1C[C@H](O)[C@]2(C)C[C@H]3C(=C4CC[C@H](C)[C@]5(O)CC[C@@]3(C)[C@]45C)C[C@@H]12 — result for “association rate constant”: 4270 M⁻¹ s⁻¹ (Protein S100-A8/S100A9 (Homo sapiens, UniProt P05109+P06702); binding, surface plasmon resonance; 1 K).
CC(=O)N1C[C@H](O)C[C@H]1C(=O)N[C@H](C(=O)N[C@@H](CO)C(=O)N[C@@H](CC(=O)O)C(=O)COC(=O)c1c(C)cccc1C)C(C)(C)C has a kinact/KI of 4500 M⁻¹ s⁻¹ (Caspase-4 (CASP4, Homo sapiens, UniProt P49662); enzyme activity, inhibitor).
COc1cc(Nc2nccc(-c3cnn4nc(OC)ccc34)n2)cc(C(F)(F)F)c1 has a remaining binding of 100% (EGFR (Homo sapiens, UniProt P00533); binding, competition with immobilised ligand; 1 µM).
CC[C@H](C)[C@H](NC(=O)[C@H](Cc1ccccc1)NC(=O)[C@H](CCC(=O)O)NC(=O)[C@H](CCCCN)NC(=O)[C@H](C)NC(=O)[C@H](C)NC(=O)[C@H](CCC(N)=O)NC(=O)CNC(=O)[C@H](CCC(=O)O)NC(=O)[C@H](CC(C)C)NC(=O)[C@H](Cc1ccc(O)cc1)NC(=O)C[C@@H](NC(=O)[C@H](CO)NC(=O)C(C)(C)NC(=O)[C@H](CC(=O)O)NC(=O)[C@H](CO)NC(=O)[C@@H](NC(=O)[C@H](Cc1ccccc1)NC(=O)[C@@H](NC(=O)CNC(=O)[C@H](CCC(=O)O)NC(=O)[C@H](C)NC(=O)[C@@H](N)Cc1c[nH]cn1)[C@@H](C)O)[C@@H](C)O)C(C)C)C(=O)N[C@@H](C)C(=O)N[C@@H](Cc1c[nH]c2ccccc12)C(=O)N[C@@H](CC(C)C)C(=O)N[C@H](C(=O)N[C@@H](CCCCN)C(=O)NCC(=O)N[C@@H](CCCNC(=N)N)C(N)=O)C(C)C gave an efficacy of 27 ± 2% (GLP1R (Homo sapiens, UniProt P43220); β-arrestin-1 recruitment, agonist, BRET; baseline: GLP-1).
CC(=O)N[C@@H](CCCCN)C(=O)N[C@H](C(=O)N[C@@H](Cc1ccc(O)cc1)C(=O)N[C@@H](Cc1ccc(O)cc1)C(=O)N[C@@H](CCCNC(=N)N)C(=O)N[C@@H](Cc1ccc(O)cc1)C(=O)N[C@@H](CC(N)=O)C(=O)NCC(=O)N[C@@H](CCCCN)C(=O)N[C@H](C(=O)N[C@@H](Cc1c[nH]c2ccccc12)C(=O)N[C@@H](Cc1c[nH]c2ccccc12)C(=O)N[C@@H](CCCNC(=N)N)C(=O)O)C(C)C)C(C)C has a α-helix content of 6.93% (Insulin (INS, Bos taurus, UniProt P01317); circular dichroism; INS-peptide complex; 800 min, final heating stage, added: INS 350 µM).
CC(=O)N[C@@H](CC(C)C)C(=O)N[C@@H](CCC(=O)O)C(=O)N[C@H](C(=O)N[C@@H](CC(=O)O)C(=O)COC(=O)c1c(C)cccc1C)[C@@H](C)O gave a kinact/KI of 79300 M⁻¹ s⁻¹ (CASP9; enzyme activity, inhibitor).
For CN(Cc1cc(C2CC2)on1)C(=O)c1cccc(-c2ccc3c(c2)CCO3)c1, the reaction rate was 0.00337 a.u. (ACSS2 (Homo sapiens, UniProt Q9NR19); enzyme activity, inhibitor, coupled pyrophosphate; 781 nM; higher is more activity).
Cc1ccc(C(=O)O)c(/N=C2\NC(=O)/C(=C/c3cccc4ccccc34)S2)c1 gave a reaction rate of -21.9 a.u. (DHODH (Homo sapiens, UniProt Q02127); enzyme activity, inhibitor, DCIP reduction; 0.5 µM; higher = more activity).
The ΔTm of CC(=O)N[C@@H](CCCNC(=N)N)C(=O)N[C@H](C(=O)N[C@@H](CCCCN)C(=O)N[C@@H](CO)C(=O)N[C@@H](CCCNC(=N)N)C(=O)N[C@H](C(=O)N[C@@H](Cc1c[nH]c2ccccc12)C(=O)N[C@@H](C)C(=O)N[C@H](C(N)=O)C(C)C)[C@@H](C)OP(=O)(O)O)[C@@H](C)O is reported as 3.76 °C (14-3-3 protein epsilon (Homo sapiens, UniProt P62258); thermal stability, DSF; 30 µM, pH 7.4).
COc1ccc(C2(C(=O)N3CCC(Nc4nc5ccccc5c(=O)[nH]4)CC3)CC2)cc1 gave an Emax of 72.6 ± 2.5% (MRGPRD (Homo sapiens, UniProt Q8TDS7, K102A); miniGq recruitment, agonist, BRET; HEK293T; K102A mutant; baseline: wild type).

For quick reference, copied from above:
CC(=O)N[C@@H](C(=O)N[C@@H](CCCC(=O)O)C(=O)N[C@@H](CCC1CCCCC1)C(=O)N[C@@H](CC(=O)O)C(=O)COC(=O)c1c(C)cccc1C)C1CCCCC1 gave a kinact/KI of 82500 M⁻¹ s⁻¹ (CASP9; enzyme activity, inhibitor).
For O=C(NCCO)c1ccc(C2CCCCC2)cc1, the hepatic clearance was 3.9 mL/min/kg (liver microsome stability; human liver microsomes; 1 µM, without NADPH).
The kinact/KI of CC(=O)N[C@H](C(=O)N[C@@H](CCC(=O)O)C(=O)N[C@@H](CCCCN(C)C)C(=O)N[C@@H](CC(=O)O)C(=O)COC(=O)c1c(C)cccc1C)C(C)C is reported as 8700 M⁻¹ s⁻¹ (CASP9; enzyme activity, inhibitor).
For O=C1c2sc(-c3ccc(N4CCC(CO)CC4)nc3F)nc2CCN1c1cccnc1, the specific binding was 0.86 nM and 1.12 nM (TAR DNA-binding protein 43, aggregated (TARDBP, Homo sapiens, UniProt Q13148); radioligand binding; human, FTLD-TDP type B sarkosyl-insoluble extract; 18.97 nM).
CC(C)C[C@H](NC(=O)[C@@H](NC(=O)[C@H](Cc1ccccc1)NC(=O)c1ccc(C(C)(C)C)cc1)C(C)(C)C)C(=O)N[C@@H](CCCCN(C)C1CC2CCC1C2)C(=O)N[C@@H](CO)C(N)=O (stereo partly drawn) has a selectivity ratio of over 1.3 (Chromobox protein homolog 8 (Homo sapiens, UniProt Q9HC52); TR-FRET displacement; baseline: IC50 CBX7 over IC50 CBX8).
CCN(CC)C(CO)c1cccc2c(C)c(C)oc12 (stereo not drawn) gave a fold change of 0.757 and 0.819 and 0.833 and 0.946 and 0.781 (LPAR1 (Homo sapiens, UniProt Q92633, W271A); G-protein dissociation, agonist, NanoBiT; HEK-293T; 1 µM, W271A mutant; baseline: baseline luminescence).
